Assay results collected from several papers.
Protocols differ between the studies behind these lines. Numbers after ± are the reported error.

For `CN1C(=O)[C@@H](Cc2ccc(O)c(I)c2)NC(=O)CNC(=O)[C@H](Cc2ccc3ccccc3c2)NC(=O)[C@H](CCCNC(=N)N)NC(=O)[C@H]1CCCNC(=O)c1ccc(CNC(=O)CN2CCN(CC(=O)O)CCN(CC(=O)O)CCN(CC(=O)O)CC2)cc1` [lutetium-177 labelled], the tissue uptake was 3.4 ± 0.6 %ID/g (refers to: 177Lu radioactivity; female CB-17 SCID mice, Daudi xenograft, kidney; intravenous, 0.16 nmol per mouse, 1 h).
For `CCCC[C@@H]1NC(=O)[C@@H](NC(=O)[C@H](CCC(=O)O)NC(=O)CNC(=O)CN2CCN(CC(=O)O)CCN(CC(=O)O)CCN(CC(=O)O)CC2)CCCCNC(=O)C[C@@H](C(N)=O)NC(=O)[C@H](C(C)C)NC(=O)[C@@H]2CCCN2C(=O)[C@H](CCCNC(=N)N)NC(=O)CNC(=O)[C@H](Cc2c[nH]c3ccccc23)NC(=O)[C@H](CCCNC(=N)N)NC(=O)[C@@H](Cc2ccccc2)NC(=O)[C@H](Cc2c[nH]cn2)NC(=O)[C@H](CCC(=O)O)NC1=O` [gallium-67 labelled], the tissue uptake was 0.16 ± 0.09 %ID/g (C57 mice, B16/F10 lung metastases, pancreas; intravenous, 0.037 MBq/mouse, 2 h).
`OCc1cn(Cc2ccc(-c3noc(-c4ccc(OCC[18F])c(C(F)(F)F)c4)n3)cc2)nn1` gave a tissue uptake of 1.91 ± 0.1 %ID/g (female Lewis rat, kidney; intravenous, 60 min).
For `O=C([O-])CN1CCN(CC(=O)[O-])CCN(CC(=O)NCCc2ccc3c(c2)C2C=CCC2C(c2cc4c(cc2Br)OCO4)N3)CCN(CC(=O)[O-])CC1.[111In+3]` (stereo not drawn), the tissue uptake was 0.21 ± 0.08 %ID/g (mice with Hec50 tumour xenograft, bone; 2 h, with: G-1 5 µg blocking).
For `CC(C)[C@H](NC(=O)[C@@H]1CCCN1C(=O)[C@H](CCCNC(=N)N)NC(=O)[C@H](CS)NC(=O)[C@H](Cc1c[nH]c2ccccc12)NC(=O)[C@H](CCCNC(=N)N)NC(=O)[C@@H](Cc1ccccc1)NC(=O)[C@H](Cc1c[nH]cn1)NC(=O)[C@H](CCC(=O)O)NC(=O)[C@H](CS)NC(=O)[C@H](CS)NC(=O)[C@@H]1CC(=O)N[C@@H](CCCNC(=N)N)C(=O)NCC(=O)N[C@@H](CC(=O)O)C(=O)N[C@H](Cc2ccc(O)cc2)C(=O)N1)C(N)=O` [technetium-99m labelled], the tissue uptake was 9.46 ± 1.07 %ID/g (C57 mouse, female, B16/F1 melanoma, tumor; intravenous, 0.037 MBq, 0.5 h).
For `CN(C)c1ccc(-c2nc3ccc(OCCCCCN4CCN5CCN(CC4)CC(=O)[O][Al]([18F])[O]C(=O)C5)cc3s2)cc1`, the tissue uptake was 3.83 ± 0.89 %ID/g (ICR mouse, kidney; intravenous, 60 min).
`CCCC[C@H](NC(=O)CNC(=O)CNC(=O)CN1CCN(CC(=O)O)CCN(CC(=O)O)CCN(CC(=O)O)CC1)C(=O)N[C@H]1CC(=O)NCCCC[C@@H](C(N)=O)NC(=O)[C@H](Cc2c[nH]c3ccccc23)NC(=O)[C@H](CCCNC(=N)N)NC(=O)[C@@H](Cc2ccccc2)NC(=O)[C@H](Cc2c[nH]cn2)NC1=O` [gallium-67 labelled] has a tissue uptake of 0.53 ± 0.25 %ID/g (female C57 mice, B16/F1 melanoma, blood; intravenous, 0.037 MBq, 4 h).
`CCCC[C@H](NC(=O)CNC(=O)CNC(=O)CN1CCN(CC(=O)O)CCN(CC(=O)O)CCN(CC(=O)O)CC1)C(=O)N[C@H]1CC(=O)NCCCC[C@@H](C(N)=O)NC(=O)[C@H](Cc2c[nH]c3ccccc23)NC(=O)[C@H](CCCNC(=N)N)NC(=O)[C@@H](Cc2ccccc2)NC(=O)[C@H](Cc2c[nH]cn2)NC1=O` [lead-203 labelled] has a tissue uptake of 0.53 ± 0.2 %ID/g (C57 mouse, stomach; intravenous, 0.056 MBq, 4 h).
For `C[C@H](CN(C)Cc1ccccc1)NC(=O)c1ccc(-c2noc(C(F)(F)[18F])n2)cc1`, the tissue uptake was 2.86 ± 0.28 SUV (PET imaging; female Sprague-Dawley rats, hippocampus; intravenous, 10 min).
`O=C([O-])CN1CCN(CC(=O)[O-])CCN(CC(=O)[O-])CCN(CC(=O)[O-])CC1.[64Cu+2]` gave a tissue uptake of 1.03 %ID/g (healthy athymic nude mice, stomach; intravenous, 15 min).
For `CC(C)[C@H](NC(=O)[C@@H]1CCCN1C(=O)[C@H](CCCNC(=N)N)NC(=O)[C@H](CS)NC(=O)[C@H](Cc1c[nH]c2ccccc12)NC(=O)[C@H](CCCNC(=N)N)NC(=O)[C@@H](Cc1ccccc1)NC(=O)[C@H](Cc1c[nH]cn1)NC(=O)[C@H](CCC(=O)O)NC(=O)[C@H](CS)NC(=O)[C@H](CS)NC(=O)CNC(=O)[C@@H]1CC(=O)N[C@@H](CCCNC(=N)N)C(=O)NCC(=O)N[C@@H](CC(=O)O)C(=O)N[C@H](Cc2ccc(O)cc2)C(=O)N1)C(N)=O` [technetium-99m labelled], the tissue uptake was 0.72 ± 0.14 %ID/g (C57 mouse, female, B16/F1 melanoma, liver; intravenous, 0.037 MBq, 24 h).
`CCCC[C@H](NC(=O)CNC(=O)CNC(=O)CN1CCN(CC(=O)O)CCN(CC(=O)O)CC1)C(=O)N[C@H]1CC(=O)NCCCC[C@@H](C(N)=O)NC(=O)[C@H](Cc2c[nH]c3ccccc23)NC(=O)[C@H](CCCNC(=N)N)NC(=O)[C@@H](Cc2ccccc2)NC(=O)[C@H](Cc2c[nH]cn2)NC1=O` [copper-64 labelled] gave a tissue uptake of 0.22 ± 0.04 %ID/g (female C57 mouse, B16/F1 melanoma, stomach; intravenous, 0.037 MBq, 24 h).

For quick reference, copied from above:
For `CN(C)c1ccc(-c2nc3ccc(OCCCCCN4CCN5CCN(CC4)CC(=O)[O][Al]([18F])[O]C(=O)C5)cc3s2)cc1`, the tissue uptake was 3.83 ± 0.89 %ID/g (ICR mouse, kidney; intravenous, 60 min).
